Results collected from several papers.
Lines come from different studies, so protocols differ. Several values in a cell are separate wells, animals, samples, runs or records. ± marks the error that the study gave.

CN1CCN(c2cc(-c3ccncc3)c(-c3ccc4ccccc4c3)nn2)CC1 — inhibition (NMBR (Homo sapiens, UniProt P28336); antagonist, FLIPR; 10 µM): 25.7%
Oc1ccc(-c2cc(Cl)ccc2Cl)c(Cl)c1 — maximum activity (Androgen receptor (AR, Homo sapiens, UniProt P10275); reporter gene, antagonist; 5 µM, together with: DHT 2 nM; baseline: DHT 2 nM): 41%
C=C(CN(C(=O)c1c(C(F)F)nn(C)c1F)C1CC1)c1ccc(Cl)cc1Cl — reaction velocity (SDHD/SDHC/SDHB (Sus scrofa, UniProt A5GZW8+D0VWV4+Q007T0); enzyme activity, inhibitor, DCIP reduction; pig; 0.4 µM, together with: DCIP 20 µM): 0.00382 µM/s and 0.0034 µM/s and 0.00291 µM/s
C[C@H]1CN(c2n[nH]c3nc(N[C@H]4CC[C@H](NS(=O)(=O)CCC(F)(F)F)CC4)ncc23)CCO1 — remaining binding (Zinc transporter 7 (Homo sapiens, UniProt Q8NEW0); Kinobeads competition, item: SLC30A7; 20 µM, unit not given; baseline: vehicle): 1.25
N#C[Se]CCCCOc1ccc2c(-c3ccccc3)cc(=O)oc2c1 — selectivity ratio (CA12 (Homo sapiens, UniProt O43570); stopped-flow CO2 hydration; baseline: Ki CA I over Ki CA XII): > 338
Fc1ccc(Oc2ccnc3cc(Cl)cc(Cl)c23)cc1 — specificity ratio (PPARG (Homo sapiens, UniProt P37231); reporter gene, agonist, β-lactamase reporter; HEK293-H cells; nominal concentration; baseline: cytotoxicity IC10 over EC10): 24.4
CC(COc1ccccc1)NC(C)C(O)c1ccc(O)cc1 (stereo not shown) — efficacy (Cholinesterase (BCHE, Homo sapiens, UniProt P06276); concentration not given, Triton): -94.3 ± 10.2%
CO[C@H]1C[C@@H]2CC[C@@H](C)[C@@](O)(O2)C(=O)C(=O)N2CCCC[C@H]2C(=O)O[C@H]([C@H](C)C[C@@H]2CC[C@@H](OC(=O)NCCOCCOCCOCCOCCOCCOCCOCCOCCC(=O)N3CCc4cc(Cn5nc(-c6ccc7oc(N)nc7c6)c6c(N)ncnc65)ccc4C3)[C@H](OC)C2)C[C@@H](O)[C@H](C)/C=C(\C)[C@@H](O)[C@@H](OC)C(=O)[C@H](C)C[C@H](C)/C=C/C=C/C=C/1C — incidence of Dyspnea TEAE (patients with advanced solid tumours; intravenous, dose not given, grade ≥3): 3.5%
CN(C(=O)n1cnc(-c2ccc[n+]([O-])c2)c1)C1CCCCC1 — probe labelling (BAR/IMD domain-containing adapter protein 2 (Baiap2, Rattus norvegicus, UniProt Q6GMN2); competitive ABPP with azido-FP probe, item: BAIAP2; rat brain membrane fraction; 100 µM, unit not given; baseline: DMSO): -2.2
Nc1ncc(-c2nc(N3CCOCC3)nc(N3CCOCC3)n2)c(C(F)F)n1 — remaining binding (BUB1 (Homo sapiens, UniProt O43683); KINOMEscan; 10 µM): 99%
CCCCC/C=C\C/C=C\C/C=C\C/C=C\CCCC(=O)NCCO — maximal open probability (Trpv1 (Mus musculus, UniProt Q704Y3, T551V); patch clamp): 0.78 ± 0.17
O=C(Nc1cccnn1)N1CCC(=Cc2cccc(Oc3ccc(C(F)(F)F)cn3)c2)CC1 — probe labelling (Protein S100-A16 (Rattus norvegicus, UniProt A0ACM8QDC9); competitive ABPP with azido-FP probe; rat brain membrane fraction; 0.01 µM, unit not given; baseline: DMSO): -5.9
CC(=O)N[C@@H](C)C(=O)N1CCC[C@H]1C(=O)N[C@@H](CC(C)C)C(=O)N[C@H](C(=O)N[C@@H](CCCNC(=N)N)C(=O)NCC(=O)N[C@@H](CO)C(=O)N[C@@H](CS)C(=O)N[C@@H](CCCNC(=N)N)C(=O)N[C@@H](CCCCN)C(=O)N[C@@H](CCCNC(=N)N)C(=O)N[C@@H](CC(N)=O)C(=O)N[C@@H](CCCNC(=N)N)C(=O)N[C@@H](CO)C(=O)N1CCC[C@H]1C(=O)N[C@@H](CCC(=O)O)C(=O)N[C@@H](CCCNC(=N)N)C(N)=O)[C@@H](C)O — ΔH (WDR5 (Homo sapiens, UniProt P61964); binding, isothermal titration calorimetry; pH 7.0, 20 °C): -7.89 kcal/mol
CC[C@H](C)[C@H](NC(=O)[C@H](Cc1ccccc1)NC(=O)[C@H](CCC(=O)O)NC(=O)[C@H](CCCNC(=N)N)NC(=O)[C@H](C)NC(=O)[C@H](C)NC(=O)[C@H](CCC(N)=O)NC(=O)[C@H](CCC(=O)O)NC(=O)[C@H](CCC(=O)O)NC(=O)[C@H](CC(C)C)NC(=O)[C@H](Cc1ccc(O)cc1)NC(=O)[C@H](CO)NC(=O)[C@H](CO)NC(=O)[C@@H](NC(=O)[C@H](CC(=O)O)NC(=O)[C@H](CO)NC(=O)[C@@H](NC(=O)[C@H](Cc1ccccc1)NC(=O)[C@@H](NC(=O)CNC(=O)[C@H](CCC(=O)O)NC(=O)[C@H](C)NC(=O)CCc1c[nH]cn1)[C@@H](C)O)[C@@H](C)O)C(C)C)C(=O)N[C@@H](C)C(=O)N[C@@H](Cc1c[nH]c2ccccc12)C(=O)N[C@@H](CC(C)C)C(=O)N[C@H](C(=O)N[C@@H](CCCNC(=N)N)C(=O)NCC(=O)N[C@@H](CCCNC(=N)N)C(=O)N[C@@H](CCCCNC(=O)COCCOCCNC(=O)COCCOCCNC(=O)CC[C@H](NC(=O)CCCCCCCCCCCCCCCCC(=O)O)C(=O)O)C(=O)NCC(=O)NCC(=O)N[C@@H](CO)C(=O)N[C@@H](CCCCNc1c(NCCCCCN(O)C(=O)CCC(=O)NCCCCCN(O)C(=O)CCC(=O)NCCCCCN(O)C(C)=O)c(=O)c1=O)C(=O)O)C(C)C [zirconium-89 labelled] — tissue uptake (ex vivo gamma counting; rat, stomach; subcutaneous, 3 nmol/kg, 24 h, together with: [89Zr]-labelled peptide): 0.22 %ID/g
NC(=O)N/N=C/c1ccc([N+](=O)[O-])o1 — kcat (nfsB (Escherichia coli K-12, UniProt P38489, K14E); pH 7.0, 37 °C, together with: 110 µM NADPH): < 0.03 s⁻¹
Cc1cc(C)n2c1C=C1C=CC(CCC(=O)Nc3ccc(OCC(=O)N[C@@H]4C(=O)N5[C@@H]4SC(C)(C)[C@@H]5C(=O)[O-])cc3)=[N+]1[B-]2(F)F.[Na+] — kinact/KI (Penicillin-binding protein 2B (Streptococcus pneumoniae, UniProt P0A3M6); whole-cell time course; live Streptococcus pneumoniae cells): 15700 ± 500 M⁻¹ s⁻¹
CCN(C)C(=O)Oc1ccc(CCC(=O)N2CCC(CCCc3ccccc3)CC2)cc1OC — selectivity ratio (Cholinesterase (BCHE, Equus caballus, UniProt P81908); Ellman; equine serum BuChE; baseline: AChE IC50 over BuChE IC50): 2
COC(=O)[C@@]1(O)C[C@H]2O[C@]1(C)n1c3ccccc3c3c4c(c5c6ccccc6n2c5c31)C(=O)NC4 — kinase activity (MAPK3 (Homo sapiens, UniProt P27361); ADP-Glo; 1.58 µM, together with: MBP substrate): 9.24% and 4.55% and 6.51%
Oc1c(Br)cc(Br)cc1Oc1ccc(Br)cc1Br — Vmax/Km (SULT1B1 (Homo sapiens, UniProt O43704); sulfonation, substrate): 64000 µL/min/mg
[2H]c1c([2H])c([C@]2([2H])CCCN2C(=O)C(C)(C)Oc2ccc3cn[nH]c3c2)c([2H])c([2H])c1C([2H])([2H])[2H] — remaining binding (ROCK2 (Homo sapiens, UniProt O75116); KINOMEscan; 1 µM; baseline: DMSO control): 99%
COc1ccc(N2C(=O)N(c3c(C)cccc3Cl)Cc3cnc(Nc4ccc(C5CCN(C)CC5)cc4OC)nc32)nc1 — inhibition (GRK5 (Homo sapiens, UniProt P34947); kinase activity; 0.5 µM): -2%
NCCCCC(c1ccccc1)(c1ccccc1)c1ccccc1 — ligand efficiency (KIF11 (Homo sapiens, UniProt P52732); basal ATPase activity, inhibitor): 0.33
O=C1[O][Pt]2([NH][C@@H]3CCCC[C@H]3[NH]2)[O]C1=O — potentiation (Chrna7 (Rattus norvegicus, UniProt Q05941); potentiator; concentration not given, holding potential -80 mV, together with: acetylcholine 30 µM): inactive
CC(C)(C)CC(C)(C)c1ccc(O)c(Cc2ccc(Cl)cc2Cl)c1 — activity class (Cholinesterase (BCHE, Homo sapiens, UniProt P06276); biochemical; concentration not given): inactive
Cc1ccc([C@H]2C[C@@H]2COc2cc(NCc3nnc(C)s3)nc(C)n2)nc1 — selectivity ratio (PDE3A (Homo sapiens, UniProt Q14432); enzyme activity, inhibitor, IMAP fluorescence polarization; baseline: Ki target over Ki PDE10A2): > 1.72e+06 fold
Nc1ncnc2c1ncn2[C@@H]1O[C@H](COP(=O)(O)OP(=O)(O)NP(=O)(O)O)[C@@H](O)[C@H]1O — TΔS (N-acetylmannosamine kinase (nanK, Haemophilus influenzae, UniProt Q4QP43, T131V); binding): 4.17 kcal/mol
NCCc1c[nH]c2ccc(O)cc12 — Km (AANAT2 cattle; substrate, DTNB colorimetric; together with: acetyl-CoA): 190 ± 80 µM
Nc1nc2c(ncn2[C@@H]2O[C@H](COP(=O)(O)OP(=O)(O)OP(=O)(O)O)[C@@H](O)[C@H]2O)c(=O)[nH]1 — binding entropy ΔS (GTP 3',8-cyclase (moaA, Staphylococcus aureus, UniProt P69848, R266A); isothermal titration calorimetry; concentration not given, 25 °C, R266A mutant, anaerobic): 5.27 cal/mol/K
COc1cc(Nc2ncc(F)c(Nc3ccc4c(n3)NC(=O)C(C)(C)O4)n2)cc(OC)c1OC — IC50 (NMDA receptor phencyclidine site): > 10 µM
CC[C@H](C)[C@@H]1NC(=O)[C@@H]2CCCN2C(=O)[C@H](CC(C)C)NC(=O)[C@H](CC(C)C)NC(=O)CNC(=O)[C@@H](NC(=O)[C@@H](NC(=O)[C@H](CC(=O)O)NC(=O)CNC(=O)[C@@H](NC(=O)[C@H](C)NC(=O)CNC(=O)[C@H](CCCCN)NC(=O)[C@H](CC(C)C)NC(=O)[C@H](CC(C)C)NC(=O)[C@H](CCCCN)NC(=O)CNC(=O)[C@@H](NC(=O)[C@@H](N)CC(C)C)C(C)C)C(C)C)C(C)C)CSSC[C@@H](C(=O)O)NC1=O — log2 fold change (RNA-seq, item: Cytip mRNA; mouse traumatic brain injury, frontal cortex and hippocampus; dose not given; baseline: TBI plus compound vs TBI): -3.31
CC[C@H]1NC(=O)[C@@H]2CSC(=N2)[C@@H](Cc2ccccc2)N(C)C(=O)[C@@H]2CCCN2C(=O)[C@H](C(C)C)N(C)C(=O)[C@H](Cc2ccccc2)OC(=O)[C@H](C)[C@@H](C)NC(=O)[C@@H]([C@@H](C)O)NC(=O)[C@@H](CC(C)C)N(C)C(=O)[C@@H]2CSC1=N2 — remaining activity (PROC (Homo sapiens, UniProt P04070); 20 µM; baseline: solvent control): 14%
Nc1ccn([C@H]2C[C@H](O)[C@@H](COP(=O)(O)OP(=O)(O)OP(=O)(O)O)O2)c(=O)n1 — kcat (Gag-Pol polyprotein, reverse transcriptase (gag-pol, Human immunodeficiency virus type 1 group M subtype B, UniProt P04585, K653A); nucleotide misincorporation, steady-state kinetics; K66A RT, together with: matched template/primer, template T): 0.0298 ± 0.0108 s⁻¹
Oc1ccc2[nH]cc(CCCCN3CC=C(c4ccccc4)CC3)c2c1 — efficacy (Cholinesterase (BCHE, Homo sapiens, UniProt P06276); concentration not given, Triton): -94.7 ± 5.05%
CCN(C)C(=O)Oc1ccc(CCC(=O)N2CCC(Cc3ccccc3)CC2)cc1OC — selectivity ratio (Cholinesterase (BCHE, Equus caballus, UniProt P81908); Ellman; equine serum BuChE; baseline: AChE IC50 over BuChE IC50): 4
O=C(c1ccc(Cl)cc1)N1CCN2C(=O)N(OC(=O)N3CCOc4ccccc43)C(=O)C2C1 (stereo not shown) — median ratio (Cholinesterase (BCHE, Homo sapiens, UniProt P06276); enzyme activity, inhibitor, MS-based ABPP; SW-620 in situ; 10 µM, 2 h, 37 °C; baseline: compound over DMSO, lower = stronger inhibition): 1.02
COc1cc(N)c(Cl)cc1C(=O)NC1CN2CCC1CC2 (stereo not shown) — log2 fold change (CMKLR2 (Homo sapiens, UniProt P46091); β-arrestin recruitment, TANGO luminescence, item: GPR1; concentration not given; baseline: basal luminescence): 0.154
O=c1c2ccccc2oc2cc(OCCCCc3ccccc3)ccc12 — reaction velocity (ache (Electrophorus electricus, UniProt O42275); enzyme activity; 0.36 µM, together with: substrate 3.45 mM; higher = faster reaction): 0.003 a.u.
COc1cc(/C=C/c2ccc(O)cc2)cc(OC)c1 — binding stoichiometry N (O-methyltransferase (Sorghum bicolor, UniProt A0A1B6PFV1, W279A); isothermal titration calorimetry; concentration not given, APO): 1.11 ± 0.006 sites
Nc1nc2c(ncn2[C@@H]2O[C@@H]3COP(=O)(O)O[C@H]4[C@@H](O)[C@H](n5cnc6c(=O)[nH]c(N)nc65)O[C@@H]4COP(=O)(O)O[C@H]3[C@H]2O)c(=O)[nH]1 — ΔS (Cell cycle histidine kinase CckA, G318A; cytoplasmic region (Caulobacter vibrioides, UniProt Q9X688, G318A); binding, ITC; together with: ADP 5 mM): 23.4 cal/mol/K
O=C(Nc1cnccc1Cl)N1CCN(Cc2ccc3c(c2)OC(F)(F)O3)CC1 — inhibition of binding (DRD3 (Homo sapiens, UniProt P35462); radioligand binding; 50 µM, together with: [3H]spiperone): 26%
